Published values from different studies.
Parts stem from different laboratories: compare values within a part only.

Block 1 — technique: RNA Bind-n-Seq; form: RNA; sample: in vitro; tested at: 20 nM; notes: 6-mer, flanks averaged, single round; together with: 150 mM KCl; reference: input library; direction: higher = stronger binding
Target: TAR DNA-binding protein 43, full length, His tag (TARDBP, Homo sapiens, UniProt Q13148, residues 1-414)
| Oligonucleotide | 6-mer enrichment (R) |
| --- | --- |
| ACACCU | 0.652 |
| ACUGCG | 0.927 |
| UUCCUU | 0.591 |
| CAUAGA | 0.652 |
| ACGGGA | 2.19 |
| CGGAUC | 0.764 |
| CGGCCU | 0.817 |
| UAUGUA | 0.824 |
| CACCGG | 0.981 |
| AUUCCU | 0.536 |
| UCUUGA | 0.635 |
| GUUUGG | 1.39 |

Block 2 — technique: protein binding microarray; form: double-stranded DNA, one strand shown; sample: in vitro; tested at: not given; reference: not given; direction: higher = stronger binding
Target: Histone acetyltransferase KAT6A, winged helix 2, GST fusion (KAT6A, Homo sapiens, UniProt Q92794, residues 85-181)
Notes: 8-mer, flanks averaged, mean of 2 arrays, mostly near background
Construct (chain): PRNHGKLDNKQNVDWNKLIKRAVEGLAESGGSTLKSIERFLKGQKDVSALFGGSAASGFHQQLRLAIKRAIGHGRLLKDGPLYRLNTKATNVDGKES
| Oligonucleotide | E-score |
| --- | --- |
| ACCGCACA | -0.0111 |
| CGTTTGGC | 0.0449 |
| AAGATCAC | -0.0996 |
| CGCTGACG | 0.0143 |
| AAAGCAAA | 0.132 |
| CATGAGTC | -0.157 |
| GTTAGAAC | 0.0435 |
| GGTCTGAC | 0.0307 |
| AAGACATA | -0.143 |
| ATGGGGAG | -0.0194 |
| CTACTTGC | 0.0792 |
| GTTAAAGA | -0.0763 |
| CGCCGAAA | 0.0744 |
| ACCGCTGG | 0.0534 |
| AAATCTCC | -0.0425 |
| AATACCAC | -0.176 |

Block 3 — technique: RNAcompete; form: RNA; sample: in vitro; tested at: 20 nM; notes: 7-mer, probes averaged, single round; reference: mean of 7-mers; direction: higher = stronger binding
Target: PABPC1L2, full length, GST fusion (mouse, UniProt A0ABA7IW68)
Construct (chain): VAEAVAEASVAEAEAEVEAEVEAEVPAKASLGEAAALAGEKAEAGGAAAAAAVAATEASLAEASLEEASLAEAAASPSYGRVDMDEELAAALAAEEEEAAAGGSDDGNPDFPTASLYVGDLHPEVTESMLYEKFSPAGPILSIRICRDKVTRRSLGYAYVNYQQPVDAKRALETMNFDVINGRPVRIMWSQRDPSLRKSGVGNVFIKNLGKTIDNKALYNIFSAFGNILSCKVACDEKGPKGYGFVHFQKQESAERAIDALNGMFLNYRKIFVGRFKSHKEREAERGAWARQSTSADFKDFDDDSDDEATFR
| Oligonucleotide | 7-mer Z-score |
| --- | --- |
| CGUCGAA | -0.267 |
| UAAGGGA | 0.193 |
| CAUACCA | -0.115 |
| GUUGUGC | -0.242 |
| GGUGUAU | 0.046 |
| AUCUACC | -0.293 |
| UCUCCAC | -0.405 |
| GCUCAAU | 0.0442 |
| GACUGUG | -0.191 |
| UGCCGCG | -0.271 |
| UCAACUA | -0.286 |
| ACAGAAA | 2.09 |
| CGCCAUG | -0.267 |
| CCCUCGA | -0.255 |
| AUGGGUG | 0.0497 |
| GUAUGUA | 0.0261 |
| UGAGAAC | -0.209 |
| CAGACUU | -0.208 |
| UCAAAGC | -0.199 |
| GUAUGGU | -0.222 |
| UGGCCCU | 0.0243 |
| UCAGCUU | -0.255 |
| UCCCGGA | -0.19 |
| GCGCGUG | -0.258 |
| GAACAAC | 0.254 |

Block 4 — target: UBE2I UBC core domain (UniProt P63279); technique: yeast two-hybrid; sample: yeast; notes: mostly zero background; reference: not given; direction: higher = stronger interaction
B1: RNF115 RING domain (UniProt Q9Y4L5); chain TQEQVDMGLECPVCKEDYTVEEEVRQLPCNHFFHSSCIVPWLELHDTCPVCRKSLNGEDSTR
B2: UBE4B RING domain (UniProt O95155); chain KNARAEIDYSDAPDEFRDPLMDTLMTDPVRLPSGTIMDRSIILRHLLNSPTDPFNRQTLTESMLEPVPELKEQIQAWMREKQNSDH
B3: MARCHF2 RING domain (UniProt Q9P0N8); chain RLLSTVIRALDTPSDGPFCRICHEGANGECLLSPCGCTGTLGAVHKSCLEKWLSSSNTSYCELCHTEFAVEKRPRPLTEWL
B4: TRIM74 RING domain (UniProt Q86UV6); chain SLLELEDWLQCPICLEVFKESLMLQCGHSYCKGCLVSLSYHLDTKVRCPMCWQVVDGSSSLP
B5: RFPL3 RING domain (UniProt O75679); chain MAALFQEASSCPVCSDYLEKPMSLECGCTVCLKCINSLQKEPHGEDLLCCCCSMVSQRNKIRP
| Molecule | lacZ reporter activity |
| --- | --- |
| B1 (RNF115 RING domain) | 0 |
| B2 (UBE4B RING domain) | 0 |
| B3 (MARCHF2 RING domain) | 0 |
| B4 (TRIM74 RING domain) | 0 |
| PLRRLQEEKLCKICMDRHIAVVFIPCGHLVTCKQCAEAVDRCPMCSAVIDFKQRVF (BIRC8 RING domain (UniProt Q96P09)) | 0 |
| B5 (RFPL3 RING domain) | 0 |

Block 5 — technique: protein-binding microarray; form: double-stranded DNA, one strand shown; sample: in vitro; tested at: 250 nM; notes: 60-bp whole probe; together with: salmon DNA 0.4 mg/ml; reference: random background probes; direction: higher = stronger binding; shared flanks, not repeated: GCCTAGCAC … GTCTTGATTCGCTTGACGCTGCTG
Target: Interferon regulatory factor 7, full length, phosphomimetic (IRF7, Homo sapiens, UniProt Q92985, residues 1-503, S101K/S471D/S472D/S475D/S476D/S477D/S483D/S484D/S487D)
Sequence of UniProt Q92985 (whole entry, unmodified, looked up): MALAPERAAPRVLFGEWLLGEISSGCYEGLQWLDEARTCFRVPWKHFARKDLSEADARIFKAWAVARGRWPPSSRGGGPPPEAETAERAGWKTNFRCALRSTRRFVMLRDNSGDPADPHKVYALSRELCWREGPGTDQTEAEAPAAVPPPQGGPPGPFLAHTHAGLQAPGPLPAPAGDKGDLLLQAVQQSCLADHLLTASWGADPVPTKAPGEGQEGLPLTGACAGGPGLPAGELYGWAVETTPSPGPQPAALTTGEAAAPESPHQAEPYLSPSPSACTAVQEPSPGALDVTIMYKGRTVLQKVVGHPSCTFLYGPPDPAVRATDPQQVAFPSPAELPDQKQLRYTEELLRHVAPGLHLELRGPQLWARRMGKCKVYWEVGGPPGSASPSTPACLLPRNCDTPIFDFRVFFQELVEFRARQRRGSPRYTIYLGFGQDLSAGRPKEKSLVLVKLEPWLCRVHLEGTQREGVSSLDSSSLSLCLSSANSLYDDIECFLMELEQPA
| Oligonucleotide | log fluorescence |
| --- | --- |
| TTAGGTTTCGGTTCAGGTTAGTGCTAG | 13.8 z-score |
| TCAGGACTGGGGTTTCGGTTAGTGCTA | 4.94 z-score |
| GACGATTGCGGGTTTCGAGACGTGCTA | 2.22 z-score |
| CTCACCGCCAACCCAGTTCCGTGCTAG | 0.31 z-score |
| TCACCTCTGCTCCTCTTACTGTGCTAG | 0.125 z-score |
| GACGGTCTCCTAGTGCTGACGTGCTAG | -0.741 z-score |
| GACGAACTGGGGACTGGAGCCGTGCTA | -0.652 z-score |
| GACGGTTCCATTTTCCTGACGTGCTAG | 2.16 z-score |
| TTAGGTATAGGGTTTCGGTTAGTGCTA | 5.15 z-score |
| ATCCCGCCTGCCCCACAGAAGTGCTAG | 0.535 z-score |
| GACGGACTGGACACCGGGGACGTGCTA | -0.628 z-score |
| TCACTTATAAATAGCACACTGTGCTAG | 0.574 z-score |
| GTCAGCGGTGGTGTTCGGTGGTGCTAG | -1.07 z-score |
| GAAGGTTTCCTTTCCCTGACGTGCTAG | 4.97 z-score |
| TCATTTTTACTTTCTGAACTGTGCTAG | 1.44 z-score |
| GACGATATCAGACTGTAGACGTGCTAG | -0.0195 z-score |
| TCAGATCTGCCGTCCCACACTGTGCTA | 0.225 z-score |
| TTAGGTTTCCACTTTCGGTTAGTGCTA | 6.59 z-score |
| GACGGTTCCCTTTTCCTGCCGTGCTAG | 2.58 z-score |
| GACGGACTGGGTATCGGGCCGTGCTAG | -0.434 z-score |
| AAGACTTTCTTTCAAATGAAGTGCTAG | 0.805 z-score |
| CTTTAACTCATTTTCGTTTTGTGCTAG | 7.99 z-score |
| TTAGGTATCCTTTTCCTTCAGTGCTAG | 1.6 z-score |
| TTAGAACTGACTCTCGATTAGTGCTAG | 0.0274 z-score |
| GACGGTTTTGGTTCCGGGACGTGCTAG | 3.03 z-score |

Block 6 — technique: RNA Bind-n-Seq; form: RNA; sample: in vitro; tested at: not given; reference: input RNA pool; direction: higher = stronger binding
Target: RING finger protein unkempt homolog, zinc fingers 1-6, GST-SBP tag (UNK, Homo sapiens, UniProt Q9C0B0, residues 30-357)
Notes: RNA with constant flanks, human-mouse chimeric sites, ends assumed
Shared flanks, not repeated: GGGAGUUCUACAGUCCGACGAUC … CAACAGAGGAUUGAGCAUCA
Residues (chain): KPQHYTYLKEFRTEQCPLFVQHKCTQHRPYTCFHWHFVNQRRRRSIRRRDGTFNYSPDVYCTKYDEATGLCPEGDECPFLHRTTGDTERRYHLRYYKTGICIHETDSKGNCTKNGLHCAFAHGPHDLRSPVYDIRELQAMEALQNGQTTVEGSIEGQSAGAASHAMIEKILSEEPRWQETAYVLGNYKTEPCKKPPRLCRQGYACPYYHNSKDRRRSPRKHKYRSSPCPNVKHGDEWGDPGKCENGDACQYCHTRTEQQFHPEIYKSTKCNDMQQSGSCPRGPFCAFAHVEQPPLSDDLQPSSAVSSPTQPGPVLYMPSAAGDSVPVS
| Oligonucleotide | bound/input enrichment [ratio] |
| --- | --- |
| UAAGUUAUUUUGUACAGUAAGUUAUUUUCUUAACAUUUUUAUAUUGCCAUGUUUAUUUUUUUUAGAUAAUUUGGUUCAUUAAGUACAUAGCUAAGGUAAUGAACAUCUUUUUCAGUAAUU | 2.37 |
| GGCCUGGACCUUCCUGGGGCUAGUACAAAUAGCGGCAGUGGAGGCUCGAGAGGAAAGUUUGUUAGUGGAGGCAGUGGAGAGGUCGUCCAUGUACGGUCCUUUACUCGAUAGAUGUGUUCU | 0.357 |
| GUCAACAGUUGUCUCAAUCCCAUUCUCUACGCCUUCCUGGAUGAGAACUUCAAGGCCUGCUUCCGCAAGUUCUGCUGUGCAUCUGCCCUGCGCCGGGACGUGCAGGUGUCUGACCGCGUG | 0.496 |
| AAUGUUCUUAAUAUUUUUGAAUAAAUGAAGCUAAAAUGUCUGCUUUUGGUACAACACGCAUUAAUAAAAGGUUAAGUUUUGUUUUCCACUGAAGUACUAUUUAACAUCUCAGAAAAAAAC | 0.319 |
| CGCUGGCCCAAGCUGAUGGACUCUGAUGGCCUCCAUCAAGGUAUUAUGUGUGCCUUCUCUUAGUCCCUGUUUUCGGGAUGUUAUGAAUCUCAGUACUGUGGUUUGAAAGCACCAGCUUUG | 0.0923 |
| UUGAAAACUGAUUCAAGCAAGUUUGAAUAUCACAAUGUUAGCUUUCUAAUUCCAUAAAAGUACUUGGUUUUUACAGUUUAUAAUCUGACAUCACCCCCCGUUUAUAAGUAAAGAGCAACU | 0.967 |
| GGCCUGGGACCGUCCUGGCUAGUGCAAAAUAGCGGCAGUGGAGGCUCGAGAGGAAAGUUUGUUAGUGAGGCAGUGGUUAGAGGCCGUCAUGUACGGUCCUUUACUCGAUAGAUGUGUUCU | 0.92 |
| UAAAUUAGCCAGCACCAUUUCUGUUUCGCCCUGAGCUGCGGAAAGCCAGAAGAUUUUAUCUAGCUUAUACAAGGCUGCUGGUGUUCCCUCUUUUUUUCCACGAGGGUGUUUUUGGCUGCA | 0.723 |
| GAGCCCAGCCGGCAGUUUGUAAAGGACUCCAUUCGGCUGGUUAAAAGAUGCACCAAACCUGAUAGAAAAGAAUUCCAGAAGAUUGCCAUGGCUACAGCUAUAGGAUUUGCUAUCAUGGGA | 0.235 |
| UCUUAACUUAUUCAUUUAACUUAUUUUUAGCACUUAGUAAAUAUUGUUAGUCUUAGACAAUAGCUCACAUUUUUUGAGAAGCAUGCCCUCCCUGUCCAUUGGGCCCAUAACAUGACCCAG | 501 |

A few entries again (block 3):
| Oligonucleotide | 7-mer Z-score |
| --- | --- |
| GCUCAAU | 0.0442 |
| UCAGCUU | -0.255 |
| UGAGAAC | -0.209 |
| CAGACUU | -0.208 |
| UAAGGGA | 0.193 |
| GAACAAC | 0.254 |
| GUAUGUA | 0.0261 |
| AUGGGUG | 0.0497 |
| GACUGUG | -0.191 |
| UCUCCAC | -0.405 |
| GUUGUGC | -0.242 |
| UCCCGGA | -0.19 |
| CGCCAUG | -0.267 |
